Measurements gathered from unrelated publications.
A part holds a random share of what one study measured.

Series 1
Target: Fragile X messenger ribonucleoprotein 1, C-terminal low-complexity region (Fmr1, Mus musculus, UniProt P35922)
Technique: RNA Bind-n-Seq
Molecule type: RNA
Matrix: in vitro
Tested at: 200 nM
Setting: whole 134-nt RNA, ends assumed
With: 150 mM KCl
Baseline: input library
Reading: higher = stronger binding
Constant ends, left off below: GGGAGUUCUACAGUCCGACGAUC … UGGAAUUCUCGGGUGUCAAGG
| Oligonucleotide | log2 enrichment |
| --- | --- |
| ACCAUGCAGGUGGGCAUCUUUGGGAAGUGGGGCAAGGGGGGGAUAGGGAGGGGGGUAACACUUUGUGAACAGGUGGUCCCAGGUCGUUUC | 0.744 |
| UGGCCCUGGUGGCAUGCGGGGAGGAAGACGUGGCCUCAUGGAUCGUGGUGGUCCCGGUGGAAUGUUCAGAGGUGGCCGUGGUGGAGACAG | -0.0676 |
| CCUCAAGUCCUGUGCUACACAUCGUAUGUACCGAAUCGGAAAGGAAAGGAGGAAAGUAUUAUGUUACGCCGUUCGGAUCUGCACUUCCAG | 0.184 |
| GUCCUGUGCUACACAUCGUAUGUACCGAAUCAAACCCCCCCAAACCCCCAAACCCAAAAAAGUAUUAUGUUACGCCGUUCGGAUCUGCAC | -0.0604 |
| AAGUCCUGUGCUACACAUCGUAUGUACCGAAUCGGGAAAAAGGGUUUUUGGGAGGGAAAGUAUUAUGUUACGCCGUUCGGAUCUGCACUU | 0.719 |
| UGGGAGGUGGAUUUUGUUUCUUUUUUUAGCUCAUUUCCAGGGGUGGGAAUUUUUUUUUAAUAUGUGUCAUGAAUAAAGUUGUUUUUGAAA | 0.403 |
| AGUCCUGUGCUACACAUCGUAUGUACCGAAUCGGGAAAAGGAAAAGGGGAAAAGGGGAAAGUAUUAUGUUACGCCGUUCGGAUCUGCACU | 0.165 |
| ACCAUGCAGGUGGGCAUCUUUGGGAAGUGGGGCAAGGGGGGGAUAAAGAGGGGGGUAACACUUUGGGAACAGGUGGUCCCAGGUCGUUUC | 0.457 |
| CAAGUCCUGUGCUACACAUCGUAUGUACCGAAUCGGCCCCGGCCCCGGGCCCCGGGAAAGUAUUAUGUUACGCCGUUCGGAUCUGCACUU | -0.296 |

Series 2
Target: Interferon regulatory factor 5, full length, phosphomimetic (IRF5, Homo sapiens, UniProt Q13568-2, residues 1-514, S451D/S453D/S456D/S462D)
Technique: protein-binding microarray
Molecule type: double-stranded DNA, one strand shown
Matrix: in vitro
Tested at: 940 nM top
Setting: 60-bp whole probe
With: salmon DNA 0.4 mg/ml
Baseline: random background probes
Reading: higher = stronger binding
Constant ends, left off below: GCCTAGCAC … GTCTTGATTCGCTTGACGCTGCTG
| Oligonucleotide | fitted relative affinity |
| --- | --- |
| GACGGTTCCGGGACTGGGGACGTGCTA | 0.598 z-score |
| TTAGGGATCGGGACTGGGTTAGTGCTA | -0.312 z-score |
| TTAGGTATCGGGTATGGGTTAGTGCTA | 5.81 z-score |
| TTAGGTTTCGGGTTCGGTTAGTGCTAG | 10.1 z-score |
| TTACGTCTCGGACTGGGTTAGTGCTAG | 1.4 z-score |
| CTGACATGTAAATGTGACATGTGCTAG | -0.318 z-score |
| GACGGTCACCTACTGCTGACGTGCTAG | -0.597 z-score |
| AAGGGTCTCTTGTTCTCTCTGTGCTAG | 0.578 z-score |
| GACGGTAACGACTATCGGGACGTGCTA | -0.208 z-score |
| GACGGCCTCGGTATCGGGACGTGCTAG | 1.05 z-score |
| TCAAGTTTCCATTTTCAACTGTGCTAG | 1.45 z-score |
| TGAGGTATCGGGACTGGGTTAGTGCTA | 2.08 z-score |
| TACGATCTCAGACTGGAGACGTGCTAG | -0.143 z-score |
| TTAGATTCCACTTTCGATTAGTGCTAG | 4.78 z-score |
| GACGGTTTCTGGTATCGGGACGTGCTA | 4.45 z-score |
| TCAAATTTACTTTGGTTACTGTGCTAG | -0.235 z-score |
| TACGGTATCGGTCTCGGGACGTGCTAG | 7.38 z-score |
| TCTTTTTTTCTTTTATTAGTGTGCTAG | 1.87 z-score |
| GACGATCGCAGTTTCGAGACGTGCTAG | 3.13 z-score |

Series 3
Target: Sal-like protein 4, full length isoform A (SALL4, Homo sapiens, UniProt Q9UJQ4, residues 1-1053)
Sequence of UniProt Q9UJQ4 (whole entry, looked up): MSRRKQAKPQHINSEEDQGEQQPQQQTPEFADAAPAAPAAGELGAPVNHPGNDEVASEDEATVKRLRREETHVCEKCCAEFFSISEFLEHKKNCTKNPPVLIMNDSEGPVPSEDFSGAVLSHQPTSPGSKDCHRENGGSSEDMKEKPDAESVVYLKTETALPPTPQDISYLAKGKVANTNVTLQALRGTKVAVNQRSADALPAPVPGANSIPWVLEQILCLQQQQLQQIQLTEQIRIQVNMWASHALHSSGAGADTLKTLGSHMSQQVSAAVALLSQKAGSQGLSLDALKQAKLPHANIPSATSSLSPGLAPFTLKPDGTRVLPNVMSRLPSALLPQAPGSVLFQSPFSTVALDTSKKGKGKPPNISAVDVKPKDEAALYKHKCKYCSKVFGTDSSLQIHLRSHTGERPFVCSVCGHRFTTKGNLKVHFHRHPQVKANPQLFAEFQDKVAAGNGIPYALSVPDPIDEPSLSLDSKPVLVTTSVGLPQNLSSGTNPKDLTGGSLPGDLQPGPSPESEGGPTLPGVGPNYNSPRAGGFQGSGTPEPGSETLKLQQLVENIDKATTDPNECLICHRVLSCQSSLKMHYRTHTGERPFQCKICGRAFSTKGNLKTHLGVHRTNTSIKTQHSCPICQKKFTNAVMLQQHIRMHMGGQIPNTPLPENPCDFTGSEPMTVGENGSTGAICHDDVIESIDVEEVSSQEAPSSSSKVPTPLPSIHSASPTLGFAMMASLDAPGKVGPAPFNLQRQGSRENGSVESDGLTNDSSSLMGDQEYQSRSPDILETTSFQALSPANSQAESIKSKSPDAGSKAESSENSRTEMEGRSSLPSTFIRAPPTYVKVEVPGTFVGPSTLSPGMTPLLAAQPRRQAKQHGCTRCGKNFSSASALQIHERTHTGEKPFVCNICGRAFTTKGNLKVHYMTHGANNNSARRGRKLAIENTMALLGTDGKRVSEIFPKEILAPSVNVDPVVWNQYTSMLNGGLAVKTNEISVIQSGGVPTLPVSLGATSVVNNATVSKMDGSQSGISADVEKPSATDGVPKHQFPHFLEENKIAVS
Technique: universal PBM
Molecule type: double-stranded DNA, one strand shown
Matrix: in vitro
Tested at: 600 nM
Setting: 8-mer, flanks averaged, mean of replicates
Reading: higher = stronger binding
| Oligonucleotide | E-score |
| --- | --- |
| AACAGGGA | 0.0541 |
| ATGCCAGC | -0.206 |
| ACTCTGCT | -0.0982 |
| AAGCCTAT | 0.0975 |
| AATTAGTG | 0.239 |
| CGCGAGTA | -0.0107 |
| AACCGGGG | -0.393 |
| GCCATTAA | 0.141 |
| ACTGTACG | 0.0569 |
| GGCCACAC | -0.169 |
| ATTCCAAT | 0.244 |
| ACGGTTTA | -0.0752 |
| TATAGCCA | 0.185 |
| TCCAAAAA | 0.284 |
| AGCCCCAA | -0.271 |
| AGCAATGA | 0.0156 |
| TACTCTCA | 0.108 |
| ACACATGG | 0.0026 |
| AAAGCCCC | -0.341 |
| AATCACGC | 0.00844 |
| GGGCATAC | -0.0773 |
| CCATCACC | -0.0918 |
| GGTGCGAA | -0.14 |
| AATGGCTA | 0.158 |
| ACTCCGCC | -0.212 |

Series 4
Target: RNA binding protein fox-1 homolog 2, RRM domain, GST-SBP tag (RBFOX2, Homo sapiens, UniProt O43251-10, residues 100-194)
Technique: RNA Bind-n-Seq
Molecule type: RNA
Matrix: in vitro
Tested at: 365 nM
Setting: natural RNA segment, single round, ends assumed
Baseline: no-protein control
Reading: higher = stronger binding
Constant ends, left off below: GGGAGUUCUACAGUCCGACGAUC … UGGAAUUCUCGGGUGCCAA
Target sequence (chain): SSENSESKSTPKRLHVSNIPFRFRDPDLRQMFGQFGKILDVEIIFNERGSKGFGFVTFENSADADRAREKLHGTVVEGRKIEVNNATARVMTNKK
| Oligonucleotide | RBNS enrichment (R) |
| --- | --- |
| UUUAGAUCUUCUGGGGUAUGCACAGCUUUAAUGAAUUAAAUUUACUGGAAUCAAUUGAAAUAAGAGGACUCAAGGUUUGUUCUAAUGAAGUUUGUCAAAUUACUCUUUGG | 0.427 |
| GACAACUGUAAAGAAAUCAAGCUGGCUGACUGUAUGAUUGCUAUUUACUUAAAGUUGACAACGUUAAUGAGUAAUUCCCCUCACCCCCCAAAAAAACAAUGUUAUUACUU | 0.579 |
| ACUAUCACCUCUCUAAUUUAAAAUGCAUGAAAAUUAAUACUUUGUUUUUGUUUUUUUUUUGGAAACAGUCUCACUCUGUCACCCAGGCUGGAGGGCACAAUCUCUGCUCA | 5.4 |
| CUAGACAGCCUCUGGUCUACCAGGACAAGGCCCAGUCCCACUCAGCUCCUUUGAGAGCACCAGAAACGCUUAGGGAGACACCUGUGUUGAGGCCACACUGGGCGCGGUGC | 0.254 |
| ACUUUGCAUUUAUAAAUUAUAAAUAUUGUACAUGUGUGUAAUUUUUUCAUGUAUUCAUUUGCAGUCUUUGUAUUUAAAAAACAUUUACUGUUAUGUUUGUAUAAUAGAAC | 0.468 |
| GCGCUUGCGUGGUGGAUCCAACACCAGCCCUGCGUCGUGGGACUUGCCUCAGAUCAGCCUGCGACUGCAAGAUUCUUACUGCAGUAGAGAACUCUUUUUCUCCCUUGUAC | 0.438 |
| UAGAGUAGCAUAUUAGACAACAGUCAUCAUUGCAAGUAGGAGGACCGUAAAUGGCAUUUUACAUGACUGCAAGUAUUGUUAUACCGAAUCCUAUUUUAAAAGAGUUUUAG | 0.565 |
| AGCCUGUCUGCCAAAUCCAGUGGAAACAAGUGCAUAGAUGUGAAUUGGUUUUUAGGGGCCCCACUUCCCAAUUCAUUAGGUAUGACUGUGGAAAUACAGACAAGGAUCUU | 0.647 |

A few entries again (series 1):
| Oligonucleotide | log2 enrichment |
| --- | --- |
| UGGCCCUGGUGGCAUGCGGGGAGGAAGACGUGGCCUCAUGGAUCGUGGUGGUCCCGGUGGAAUGUUCAGAGGUGGCCGUGGUGGAGACAG | -0.0676 |
| CAAGUCCUGUGCUACACAUCGUAUGUACCGAAUCGGCCCCGGCCCCGGGCCCCGGGAAAGUAUUAUGUUACGCCGUUCGGAUCUGCACUU | -0.296 |
| AAGUCCUGUGCUACACAUCGUAUGUACCGAAUCGGGAAAAAGGGUUUUUGGGAGGGAAAGUAUUAUGUUACGCCGUUCGGAUCUGCACUU | 0.719 |
| ACCAUGCAGGUGGGCAUCUUUGGGAAGUGGGGCAAGGGGGGGAUAAAGAGGGGGGUAACACUUUGGGAACAGGUGGUCCCAGGUCGUUUC | 0.457 |
| ACCAUGCAGGUGGGCAUCUUUGGGAAGUGGGGCAAGGGGGGGAUAGGGAGGGGGGUAACACUUUGUGAACAGGUGGUCCCAGGUCGUUUC | 0.744 |
| UGGGAGGUGGAUUUUGUUUCUUUUUUUAGCUCAUUUCCAGGGGUGGGAAUUUUUUUUUAAUAUGUGUCAUGAAUAAAGUUGUUUUUGAAA | 0.403 |
| AGUCCUGUGCUACACAUCGUAUGUACCGAAUCGGGAAAAGGAAAAGGGGAAAAGGGGAAAGUAUUAUGUUACGCCGUUCGGAUCUGCACU | 0.165 |
| CCUCAAGUCCUGUGCUACACAUCGUAUGUACCGAAUCGGAAAGGAAAGGAGGAAAGUAUUAUGUUACGCCGUUCGGAUCUGCACUUCCAG | 0.184 |
